Results pooled from the literature.
Each numbered part is a random draw from the data of one study; scales do not carry over between parts. Changes are numbered by the printed parent chain.

Set 1
Target: Interferon regulatory factor 7, full length, phosphomimetic (IRF7, Homo sapiens, UniProt Q92985, residues 1-503, S471D/S472D/S475D/S476D/S477D/S483D/S484D/S487D)
Method: protein-binding microarray
Form: double-stranded DNA, one strand shown
Sample: in vitro
Tested at: 2200 nM top
Setting: 60-bp whole probe
With: salmon DNA 0.4 mg/ml
Baseline: random background probes
Direction: higher = stronger binding
Shared flanks, not repeated: GCCTAGCAC … GTCTTGATTCGCTTGACGCTGCTG
Construct (chain): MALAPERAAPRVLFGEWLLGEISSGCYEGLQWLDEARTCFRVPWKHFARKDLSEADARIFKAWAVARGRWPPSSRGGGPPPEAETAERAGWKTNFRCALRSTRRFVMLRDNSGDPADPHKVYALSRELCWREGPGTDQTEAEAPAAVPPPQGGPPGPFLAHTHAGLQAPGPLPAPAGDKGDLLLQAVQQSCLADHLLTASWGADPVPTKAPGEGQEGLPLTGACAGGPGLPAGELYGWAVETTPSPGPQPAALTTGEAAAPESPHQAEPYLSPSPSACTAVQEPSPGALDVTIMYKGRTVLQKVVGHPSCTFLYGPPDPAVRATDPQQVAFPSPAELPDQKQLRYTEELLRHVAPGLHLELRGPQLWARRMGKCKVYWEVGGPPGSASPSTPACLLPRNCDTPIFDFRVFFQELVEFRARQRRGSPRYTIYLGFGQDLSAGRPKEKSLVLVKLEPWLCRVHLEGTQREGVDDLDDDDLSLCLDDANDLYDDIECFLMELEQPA
Strand	fitted relative affinity [z-score]
AGATTTTTCTCAACCGTTGTGTGCTAG	0.716
CTCTACATGGGTATAGAGTAGTGCTAG	-0.0277
CTAGGACTGGGGTTTCGGTTAGTGCTA	1.94
TGCTTTCTCTTTCACTGCTGGTGCTAG	7.87
TCATGTCTGGAGTCTCTGACTGTGCTA	0.482
TTAGATTTCGAGACTGGATTAGTGCTA	0.419
TTATGTTTCGGTATCGGTTAGTGCTAG	6.59
GACGGTTTCGGACTGGAGACGTGCTAG	3.28
TTAGGTTTCATTCTCCTTTAGTGCTAG	3.29
TTAGGTTTCGGTATTGGTTAGTGCTAG	6.54
TTAGAACTGGGGTGTCGATTAGTGCTA	-0.222
TCAGCTTTGCAGATAAAACTGTGCTAG	-0.127
TTGGATATCAGACTGGATTAGTGCTAG	0.00315
GACGATATCAGACTGTAGACGTGCTAG	0.144
TTAGGTTTCGACACTGGGATAGTGCTA	2.28
GACGGTAACCTTATCCTGACGTGCTAG	0.459
TTAGGACTGGGGTTTGGGTTAGTGCTA	-0.183
TTAGAACTGAGGTATCGATTAGTGCTA	-0.839
TCATGATCCATTTTGGTACTGTGCTAG	1.32

Set 2
Target: RING finger protein unkempt homolog, zinc fingers 1-6, GST-SBP tag (UNK, Homo sapiens, UniProt Q9C0B0, residues 30-357)
Method: RNA Bind-n-Seq
Form: RNA
Sample: in vitro
Tested at: not given
Setting: RNA with constant flanks, human and mouse sites, ends assumed
Baseline: input RNA pool
Direction: higher = stronger binding
Target sequence (chain): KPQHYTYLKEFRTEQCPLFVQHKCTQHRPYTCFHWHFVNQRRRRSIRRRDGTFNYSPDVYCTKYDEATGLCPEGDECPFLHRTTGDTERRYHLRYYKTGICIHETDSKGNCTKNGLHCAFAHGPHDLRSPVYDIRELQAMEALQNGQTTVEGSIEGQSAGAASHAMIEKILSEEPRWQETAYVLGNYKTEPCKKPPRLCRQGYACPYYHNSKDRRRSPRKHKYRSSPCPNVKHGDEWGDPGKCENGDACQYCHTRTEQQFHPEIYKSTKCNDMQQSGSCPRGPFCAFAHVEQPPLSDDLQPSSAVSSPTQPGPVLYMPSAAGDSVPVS
Strand	bound/input enrichment [ratio]
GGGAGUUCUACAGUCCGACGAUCGUAGAGAAAGACCGGCCGGCGGCUUUAGACUCCCUUGAGGAGCCUCUUCCCGGGAUGCUCUUCUUUCUGUCAUCUGGACAGGACCAGCAAGCGCACCCCCAGCUGAGGGAACACCCAGCACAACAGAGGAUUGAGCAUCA	0.0855
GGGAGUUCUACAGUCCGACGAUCGAGGAUGCUCCUGGGACUUCGGAGCAGAGCUGCUGUGCUCGGGAAGACGGCAUUGAUGCUGUAGAGGUGGCAGCCGACCGACCUGGCAGUCCUCGGAGCUCGGCCUCUGGUACACACUCUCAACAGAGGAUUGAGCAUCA	0.043
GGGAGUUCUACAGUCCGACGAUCCACCUAAGAGAUAAGAGCACCGACUGCUGUGGGGAUAAUGAUCCCAUUGACGUCUGUGAAAUAGGCUCAAAGGUUCUUUCCCGUGGAGACGUGGUCCAUGUGAAGAUCCUUGGGACUUUGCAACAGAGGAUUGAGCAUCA	0.135
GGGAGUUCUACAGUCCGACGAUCUAUUUAAUCAAAUAAGAUACAUGAUAUUGAAAGAAUAAAGCAGCAUUUUUAGUUUUUACUACCUUAGGCUUUAUUGCUUUGAAAACAACAUUGGCCUUUUGUAUCUCACAAUUCUGGUCUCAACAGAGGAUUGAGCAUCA	1.18
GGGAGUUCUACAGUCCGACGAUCGGAAUCAUCGGGGGUAAAGAAGCGGCGGAUACCCCGUUUUGAGGAGGUAGAAGAGGAGCCAGAGGUGAUCCCUGGACCUCCAUCAGAAAGCCCUGGCAUGCUAACAAAGCUCCAGAUCAACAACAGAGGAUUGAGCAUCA	0.145
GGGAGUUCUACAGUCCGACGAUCGCUAUCUAUGUCCAAGCACUGAUUUUUCGCCUGGAAGGAAAUAUCCAAGAAUCCCUAGAACUCUUUCAGACAUGUGCUGUUCUCAGCCCACAGUGUGCUGAUAAUCUCAAGCAGGUGGCCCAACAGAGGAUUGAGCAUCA	0.193
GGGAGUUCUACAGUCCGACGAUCUUUCUUCCCCCUACCUCUGUGGCUGGUGCCACUCUGUACUCAGUGGCAAUGUAUGGUGGAUUAGUUCUUUUCAGCAUGUUCCUUCUGUAUGAUACUCAGAAAGUAAUCAAACGUGCAGAACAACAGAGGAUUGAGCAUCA	0.548
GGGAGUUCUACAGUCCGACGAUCAAUGAGAAUAAUAUUCUUGCAAAAAAGAAACCCUAUAAGUGUGAUAAAUGUAGAAAAGCCUUUAUUCAUAGAUCAUCGCUUACUAAACAUGAGAAAACACAUAAAGGAGAGGGAGCUUUCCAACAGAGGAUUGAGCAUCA	0.343

Set 3
Target: Histone acetyltransferase KAT6A, winged helix 2, GST fusion (KAT6A, Homo sapiens, UniProt Q92794, residues 85-181)
Method: protein binding microarray
Form: double-stranded DNA, one strand shown
Sample: in vitro
Tested at: not given
Setting: 8-mer, flanks averaged, mean of 2 arrays, mostly near background
Baseline: not given
Direction: higher = stronger binding
Target sequence (chain): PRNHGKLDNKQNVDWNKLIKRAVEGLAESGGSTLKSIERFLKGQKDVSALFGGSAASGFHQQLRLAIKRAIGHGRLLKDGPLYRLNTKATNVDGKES
Strand	E-score
GATTAAGC	-0.0527
CATTTCCC	0.105
CCGGCCAC	0.28
AAGACTGG	-0.22
CTACCGCA	0.0137
TACCCTGA	-0.0612
CACGGCCC	-0.0447
AGTTACGA	0.189
CCCGTGCC	-0.0325
CAGCCGAC	-0.0362
TGAAGTCA	-0.158
CGCGCGCG	0.3
CGTTTCAC	0.02
GGGGAATA	0.0147
CGTGCATA	-0.0284
TAAAAGGA	0.0584
AAGAGTAT	-0.165
ACCCAGGA	0.0259

Set 4
Target: Sal-like protein 4, full length isoform A (SALL4, Homo sapiens, UniProt Q9UJQ4, residues 1-1053)
UniProt Q9UJQ4, sequence (whole entry, looked up): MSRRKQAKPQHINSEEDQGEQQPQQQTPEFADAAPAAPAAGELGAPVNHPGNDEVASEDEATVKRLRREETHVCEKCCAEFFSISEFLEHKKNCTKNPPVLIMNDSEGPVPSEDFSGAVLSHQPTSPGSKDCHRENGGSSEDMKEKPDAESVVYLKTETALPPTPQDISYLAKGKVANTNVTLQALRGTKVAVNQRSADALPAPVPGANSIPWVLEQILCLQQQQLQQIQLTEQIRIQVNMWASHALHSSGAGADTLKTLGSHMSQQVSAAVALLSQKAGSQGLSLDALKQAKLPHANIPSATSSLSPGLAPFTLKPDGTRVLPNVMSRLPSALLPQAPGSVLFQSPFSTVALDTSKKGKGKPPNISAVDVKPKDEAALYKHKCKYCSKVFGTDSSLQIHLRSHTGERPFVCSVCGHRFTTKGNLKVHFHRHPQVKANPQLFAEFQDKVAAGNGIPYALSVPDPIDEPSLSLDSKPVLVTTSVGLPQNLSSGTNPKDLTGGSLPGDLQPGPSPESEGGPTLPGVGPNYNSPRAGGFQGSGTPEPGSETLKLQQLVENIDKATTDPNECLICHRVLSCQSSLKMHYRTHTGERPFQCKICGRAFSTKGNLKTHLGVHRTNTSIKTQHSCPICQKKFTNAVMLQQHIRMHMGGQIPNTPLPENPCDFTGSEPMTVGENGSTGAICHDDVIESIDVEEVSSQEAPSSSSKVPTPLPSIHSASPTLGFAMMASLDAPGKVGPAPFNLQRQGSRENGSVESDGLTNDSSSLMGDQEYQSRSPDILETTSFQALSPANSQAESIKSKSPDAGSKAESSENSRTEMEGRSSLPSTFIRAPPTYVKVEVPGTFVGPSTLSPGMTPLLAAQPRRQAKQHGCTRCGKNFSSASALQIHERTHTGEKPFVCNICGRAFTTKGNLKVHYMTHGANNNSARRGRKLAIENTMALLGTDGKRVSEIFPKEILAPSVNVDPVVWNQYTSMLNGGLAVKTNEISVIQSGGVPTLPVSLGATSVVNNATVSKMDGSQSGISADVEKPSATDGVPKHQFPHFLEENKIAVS
Method: universal PBM
Form: double-stranded DNA, one strand shown
Sample: in vitro
Tested at: 600 nM
Setting: 8-mer, flanks averaged, mean of replicates
Direction: higher = stronger binding
Strand	E-score
ATAATAGC	0.266
ACACTCGA	-0.0938
CATAATTC	0.379
GGAAAGCA	0.00276
AGAGAGTC	-0.0987
TCAGTCGA	-0.012
ATCATGTG	0.157
CATGGAAG	0.163
AGAATTTC	0.0641
CCCCACGC	-0.276
CTTGATCA	0.0813
ACAATGCC	-0.0944
CGCCTTGC	-0.186
GCGCTTGA	-0.0816
ACATCAAC	0.0687
CCAAATCC	-0.089
CCTCTTAG	0.0371
AAGCTGAT	0.0447
AATCAACG	0.0948
AACGAACC	-0.124
TTGACAAA	0.309
ATGTAGTC	0.195
CGTTGTTA	0.16
AAGCTCGT	-0.102

Set 5
Target: CCNB3, cyclin fold, Cln2 fusion (human)
Method: yeast growth competition, sequencing
Sample: yeast
Setting: weak parent motif
Baseline: not given
Direction: higher = stronger binding
Starting sequence: CDKN1B docking peptide (human); PSACRNLFGPVDH
Substitution	normalised enrichment score
PSACRNLLGPVDH [F8L]	-0.0264
PSACRNLFNPVDH [G9N]	0.264
PDACRNLFGPVDH [S2D]	0.211
PSACRNLFGQVDH [P10Q]	0.407
PSACRNLFLPVDH [G9L]	0.393
WSACRNLFGPVDH [P1W]	0.816
PSACRNLFGPIDH [V11I]	0.741
PSACTNLFGPVDH [R5T]	0.0597
PSACRNLFGNVDH [P10N]	0.541
PSECRNLFGPVDH [A3E]	0.64
PSACRKLFGPVDH [N6K]	0.743
PSFCRNLFGPVDH [A3F]	0.535
PSACRNLFGPKDH [V11K]	0.192
PSACRNSFGPVDH [L7S]	0.27
PSACRYLFGPVDH [N6Y]	0.12
PVACRNLFGPVDH [S2V]	0.271
PSACGNLFGPVDH [R5G]	-0.131
PSMCRNLFGPVDH [A3M]	1
PSACRHLFGPVDH [N6H]	0.118
PSACRNLFGPVDT [H13T]	0.417
PSACRNLFGPVLH [D12L]	0.437
PSACYNLFGPVDH [R5Y]	0.727
PSACRNLFGPFDH [V11F]	0.41
PSACRELFGPVDH [N6E]	0.343
PSACRNLFDPVDH [G9D]	0.409

Repeated from above (set 4):
Strand	E-score
AGAATTTC	0.0641
CCCCACGC	-0.276
CTTGATCA	0.0813
ACAATGCC	-0.0944
CGCCTTGC	-0.186
GCGCTTGA	-0.0816
ACATCAAC	0.0687
CCAAATCC	-0.089
CCTCTTAG	0.0371
AAGCTGAT	0.0447
